Earlier results that unrelated publications cite.
Lines come from different studies, so protocols differ.

The IC50 of `Cc1cc(-c2ccccc2)nnc1NCCN1CCOCC1` is reported as 85000 nM (acetylcholinesterase (rat striatum); inhibitor).
`C[C@@](O)(/C=C/[C@H]1CC=CC(=O)O1)[C@@H](C[C@@H](O)\C=C/C=C\C=C\CO)OP(=O)(O)O` gave an IC50 of roughly 2 nM (protein phosphatase 2A catalytic subunit; enzyme activity, inhibitor).
For `COc1ccc(-c2nn3c(-c4ccco4)nnc3s2)cc1OC`, the IC50 was 19 nM (DCTPP1; inhibitor).
`C[C@@H]1CN(c2ncc(C(O)CO)cc2Cl)CCN1c1nc2c(-c3cc(F)c(F)c(F)c3)cc(C(F)(F)F)cc2[nH]1` (stereo partly shown) gave an IC50 of 0.9 nM (TRPV1 (rat); antagonist, cell-based; added: low pH).
For `CC12C(=O)OC(=O)C1(C)C1CCC2O1` (stereo not shown), the IC50 was 200 to 8000 nM (protein phosphatase 1 catalytic subunit; enzyme activity, inhibitor).
With `COc1ccc2c(c1)[nH]c1c(C)nccc12` the IC50 was 280 nM (human CLK2; kinase activity, inhibitor).
The IC50 of `O=C(NC[C@H]1CN(c2ccc(N3CCOCC3=O)cc2)C(=O)O1)c1ccc(Cl)s1` is reported as 0.7 nM (factor Xa, clot-associated; inhibitor; closed non-flow system).
`NC(=O)c1ncn([C@@H]2O[C@H](CO)[C@@H](O)[C@H]2O)n1` has an IC50 of 100 to 250 nM (IMPDH2; inhibitor).
The IC50 of `CC(C)C[C@H](NC(=O)[C@H](Cc1ccccc1)NC(=O)c1cnccn1)B(O)O` is reported as 2500 nM (CTSA; enzyme activity, inhibitor, MS-based activity-based protein profiling).
The IC50 of `CNc1nc(C)nc(N[C@H]2CCC[C@@H](C(=O)NCc3ccc(C#N)cc3C(F)(F)F)C2)n1` is reported as 189 nM (mouse soluble epoxide hydrolase; enzyme activity, inhibitor).
For `O=c1nc([C@@H]2CCCN2)[nH]c2c1oc1ccc(Cl)cc12`, the IC50 was 3.4 nM (CDC7; inhibitor).
For `CC[C@H](C)[C@@H](C(=O)O[C@@H](CC(C)C)C(=O)N[C@@H](CC(C)C)C(=O)N[C@@H](C)/C=C/C(=O)N1C(=O)C=C(OC)[C@@H]1C)N(C)C`, the IC50 was 5 nM (cathepsin L; enzyme activity, inhibitor).
`CC(C)(C)c1nc(-c2cccc(NS(=O)(=O)c3c(F)cccc3F)c2F)c(-c2ccnc(N)n2)s1` gave an IC50 of 1 nM (NEK9; inhibitor).
`CC(C)[C@H](NC(=O)[C@H](CCCNC(=N)N)NC(=O)N[C@@H](Cc1ccccc1)C(=O)O)C(=O)N[C@H](C=O)CCCNC(=N)N` has an IC50 of 2000 nM (CTSA).
`CCCCCCCCCCCCCC(=O)O[C@@H]1[C@@H](C)[C@@]2(O)[C@@H](C=C(CO)C[C@]3(O)C(=O)C(C)=C[C@@H]23)[C@@H]2C(C)(C)[C@]12OC(C)=O` gave an IC50 of 0.79 nM (phorbol ester binding site; binding; historical reference value).
`COc1ccc(-c2nn3c(-c4cccs4)nnc3s2)cc1OC` gave an IC50 of 20 nM (dCTPase DCTPP1; inhibitor).

Repeated from above:
`NC(=O)c1ncn([C@@H]2O[C@H](CO)[C@@H](O)[C@H]2O)n1` has an IC50 of 100 to 250 nM (IMPDH2; inhibitor).
The IC50 of `CNc1nc(C)nc(N[C@H]2CCC[C@@H](C(=O)NCc3ccc(C#N)cc3C(F)(F)F)C2)n1` is reported as 189 nM (mouse soluble epoxide hydrolase; enzyme activity, inhibitor).
